Published values gathered from unrelated publications.
± gives the spread as reported.
TDP1: Tyrosyl-DNA phosphodiesterase 1 (TDP1, Homo sapiens, UniProt Q9NUW8)
Sequence of UniProt Q9NUW8 (whole entry, looked up): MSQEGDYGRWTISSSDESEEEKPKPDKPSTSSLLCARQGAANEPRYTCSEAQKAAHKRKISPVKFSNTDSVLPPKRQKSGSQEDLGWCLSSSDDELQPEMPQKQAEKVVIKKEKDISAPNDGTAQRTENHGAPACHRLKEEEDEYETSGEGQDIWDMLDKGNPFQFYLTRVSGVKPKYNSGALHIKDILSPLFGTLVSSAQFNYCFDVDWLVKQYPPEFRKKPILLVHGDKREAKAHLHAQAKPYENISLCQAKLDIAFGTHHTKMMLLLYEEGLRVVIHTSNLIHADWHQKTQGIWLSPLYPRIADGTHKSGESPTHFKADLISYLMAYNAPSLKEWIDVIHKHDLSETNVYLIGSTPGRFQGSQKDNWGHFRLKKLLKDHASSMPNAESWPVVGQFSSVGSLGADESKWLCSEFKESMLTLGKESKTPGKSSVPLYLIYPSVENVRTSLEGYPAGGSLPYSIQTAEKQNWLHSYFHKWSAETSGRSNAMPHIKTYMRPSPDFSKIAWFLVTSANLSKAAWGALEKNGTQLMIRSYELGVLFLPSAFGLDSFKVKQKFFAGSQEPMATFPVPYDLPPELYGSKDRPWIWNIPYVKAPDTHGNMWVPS

Structure (SMILES)	target or system	test	test system	setting	how to read	quantity	value
CC(=O)OC[C@H]1O[C@@H](Sc2sc(C(=O)c3ccc(Br)cc3)c(N)c2-c2nc3ccccc3s2)[C@H](OC(C)=O)[C@@H](OC(C)=O)[C@H]1OC(C)=O	coxsackievirus B4	plaque reduction	–	non-toxic concentration	–	viral titre reduction	40%
C#CCN1CCc2c3n(c4ccccc24)C(=O)C(C)(C)C3(C(=O)OC)C1 (stereo not shown)	hepatitis B virus	HBsAg secretion, ELISA	HepAD38	5 µM, 0.5% DMSO	baseline: vehicle	inhibition	inactive
CO[C@@H]1OC[C@@H](O)[C@H](O)[C@H]1O	Helicobacter pylori	microbial growth, broth dilution	–	31.25 µg/mL	–	inhibition	5.21%
Nc1nc(-c2ccccc2)nc2[nH]nc(Nc3cccc(F)c3)c12	rhinovirus A2	viral cytopathic effect	HeLa	–	–	IC50	9.05 µM
O=C(CCCc1cn(C[C@H]2O[C@@H]3O[C@H]4[C@H](O)[C@@H](O)[C@@H](O[C@H]5[C@H](O)[C@@H](O)[C@@H](O[C@H]6[C@H](O)[C@@H](O)[C@@H](O[C@H]7[C@H](O)[C@@H](O)[C@@H](O[C@H]8[C@H](O)[C@@H](O)[C@@H](O[C@H]2[C@H](O)[C@H]3O)O[C@@H]8Cn2cc(CCCC(=O)N[C@H]3CCOC3=O)nn2)O[C@@H]7Cn2cc(CCCC(=O)N[C@H]3CCOC3=O)nn2)O[C@@H]6Cn2cc(CCCC(=O)N[C@H]3CCOC3=O)nn2)O[C@@H]5Cn2cc(CCCC(=O)N[C@H]3CCOC3=O)nn2)O[C@@H]4Cn2cc(CCCC(=O)N[C@H]3CCOC3=O)nn2)nn1)N[C@H]1CCOC1=O	Escherichia coli	LuxR reporter, antagonist	DH5α sensor strain	10 µM, with: OHHL 200 nM	–	inhibition	3 ± 1%
Nc1nc(-c2ccccc2)nc2[nH]nc(Nc3c(F)cc(F)cc3F)c12	rhinovirus A2	viral cytopathic effect	HeLa	–	–	IC50	13.5 µM
O=C(O)c1ccc(Nc2c(-c3ccc(CON=Cc4c(-c5cccc(F)c5)nc5sccn45)cc3)nc3cc(-c4ccccc4)ccn23)cc1 (mixture of isomers)	TDP1	enzyme activity, inhibitor	–	100 µM, unpurified compound	–	inhibition	30.9%
C[C@@H]1C(=O)O[C@@H](C)/C=C/C=C\[C@@H](C)[C@@H]2C=C[C@@H]3C[C@@]4(C)O[C@H]4[C@@H](C)[C@H]3[C@@H]2C(=O)C(Cl)(Cl)C1=O	Staphylococcus aureus	–	MRSA clinical isolate	resistant, OXA, CIP, MXF, ERY, CLI, RIF	–	MIC	0.025 µg/mL
CC=C(C)C(=O)OC1CC2C(C=C(C)C3C(OC(C)=O)CC(=O)C13C)OC(=O)C2C (stereo not shown)	Helicobacter pylori	microbial growth, broth dilution	–	31.25 µg/mL	–	inhibition	0%
COc1cc2c(cc1OC)-c1cc3ccc(OC)c(OC)c3c[n+]1CC2.[Cl][Fe-]([Cl])([Cl])[Cl]	Escherichia coli	–	–	24 h, 37 °C	–	MIC50	368 µM
O=C(O)c1ccc(Nc2c(-c3ccccc3)nc3ccc(CON=Cc4c(Cl)cncc4Cl)cn23)cc1	TDP1	enzyme activity, inhibitor	–	100 µM, unpurified compound	–	inhibition	57.8%
CC(C)(C)NCC(SS(=O)(=O)O)c1ccccc1 (stereo not shown)	Schistosoma mansoni	perfusion day 44	infected Swiss Webster mice	600 mg/kg single dose, 1056 h, dosed day 1 post-infection	baseline: vehicle control	spleen weight decrease	26%
CN(Cc1ccc(C2(C(F)(F)F)CCC2)cc1)Cc1cccc2ccccc12	Trichophyton mentagrophytes	microbial growth, disc diffusion	ATCC18748	0.00025 µg/mL, 72 h	–	inhibition zone	0 mm
C/C=C(/C)C(=O)O[C@@H]1C=C(C)CC[C@]2(O)[C@@H](C(C)C)CC(=O)[C@]12C	Helicobacter pylori	microbial growth, broth dilution	–	31.25 µg/mL	–	inhibition	0%
Cc1cccc2c1N(C(=O)n1ccnn1)CC2	Arabidopsis thaliana	–	wild type	0.1 µM, seedlings	–	hypocotyl length	10.7 mm
CC(=O)O[C@@H]1[C@@H](OC(C)=O)[C@H](Sc2sc(C(=O)c3ccc(Cl)cc3)c(N)c2-c2nc3ccccc3s2)OC[C@H]1OC(C)=O	coxsackievirus B4	plaque reduction	–	non-toxic dose NG, mean over three titres	–	viral reduction	20%
CC(C)[C@@H]1NC(=O)[C@@H](CCCNC(=N)N)NC(=O)[C@H]([C@@H](C)O)NC(=O)[C@@H](CCCN)NC(=O)[C@H](Cc2ccc(F)cc2)NC(=O)[C@@H](Cc2ccccc2)NC1=O	Balamuthia mandrillaris	parasite growth, ATP luminescence	–	–	–	IC90	12.5 µM
C=C(NC(=O)c1csc(-c2nc3c(cc2O)-c2nc(cs2)C(=O)NC(C(C)O)C(=O)NC(=C(C)OC)c2nc(cs2)C(=O)NC2c4nc(cs4)C(=O)NC(COC(=O)c4c5c6c(cccc6n4O)COC(=O)C(OC4CC(C)(O)C(N(C)C)C(C)O4)C2OC5)c2nc-3cs2)n1)C(N)=O (stereo not shown)	Staphylococcus aureus	–	MRSA, 10 isolates	pH 7.0	–	MIC50	0.0156 µg/mL
CC(=O)O[C@@H]1[C@@H](OC(C)=O)[C@H](Sc2sc(C(=O)c3ccc(C)cc3)c(N)c2-c2nc3ccccc3s2)OC[C@H]1OC(C)=O	human adenovirus 7	plaque reduction	–	non-toxic dose NG, mean over three titres	–	viral reduction	20%
CCOC(=O)c1cc(-c2nc3ccccc3s2)c(=O)n(NS(=O)(=O)c2ccccc2)c1N	coxsackievirus B4	viral replication, plaque	BGM	non-toxic dose, mean of three titres	–	plaque reduction	0%
CCCCCCCCn1cc[n+](CCCCCCCCCCOc2cc(OCCCCCCCCCC[n+]3ccn(CCCCCCCC)c3)cc(OCCCCCCCCCC[n+]3ccn(CCCCCCCC)c3)c2)c1.[Br-].[Br-].[Br-]	Enterococcus faecalis	–	OG1RF	–	–	MIC	16 µM
[2H]C([2H])([2H])C1(C([2H])([2H])[2H])NC(=O)N(c2ccc(F)c(C(C)(F)F)c2)C1=O	Schistosoma japonicum	–	adult, mouse	oral, single dose	–	ED50	6.3 mg/kg
Cc1cccc(Nc2n[nH]c3nc(-c4ccccc4)nc(N)c23)c1	rhinovirus A2	viral cytopathic effect	HeLa	–	–	IC50	4.42 µM
O=c1c(-c2nc3ccccc3s2)cc2c(n1NS(=O)(=O)c1ccc(Cl)cc1)CCCCCC2	coxsackievirus B4	viral replication, plaque	BGM	non-toxic dose, mean of three titres	–	plaque reduction	66.7%
CC(=O)OC[C@H]1O[C@@H](Sc2sc(C(=O)c3ccc(Cl)cc3)c(N)c2-c2nc3ccccc3s2)[C@H](OC(C)=O)[C@@H](OC(C)=O)[C@@H]1OC(C)=O	coxsackievirus B4	plaque reduction	–	non-toxic dose NG, mean over three titres	–	viral reduction	23.3%

Repeated from above:
Structure (SMILES)	target or system	test	test system	setting	how to read	quantity	value
C=C(NC(=O)c1csc(-c2nc3c(cc2O)-c2nc(cs2)C(=O)NC(C(C)O)C(=O)NC(=C(C)OC)c2nc(cs2)C(=O)NC2c4nc(cs4)C(=O)NC(COC(=O)c4c5c6c(cccc6n4O)COC(=O)C(OC4CC(C)(O)C(N(C)C)C(C)O4)C2OC5)c2nc-3cs2)n1)C(N)=O (stereo not shown)	Staphylococcus aureus	–	MRSA, 10 isolates	pH 7.0	–	MIC50	0.0156 µg/mL
COc1cc2c(cc1OC)-c1cc3ccc(OC)c(OC)c3c[n+]1CC2.[Cl][Fe-]([Cl])([Cl])[Cl]	Escherichia coli	–	–	24 h, 37 °C	–	MIC50	368 µM
C[C@@H]1C(=O)O[C@@H](C)/C=C/C=C\[C@@H](C)[C@@H]2C=C[C@@H]3C[C@@]4(C)O[C@H]4[C@@H](C)[C@H]3[C@@H]2C(=O)C(Cl)(Cl)C1=O	Staphylococcus aureus	–	MRSA clinical isolate	resistant, OXA, CIP, MXF, ERY, CLI, RIF	–	MIC	0.025 µg/mL
O=c1c(-c2nc3ccccc3s2)cc2c(n1NS(=O)(=O)c1ccc(Cl)cc1)CCCCCC2	coxsackievirus B4	viral replication, plaque	BGM	non-toxic dose, mean of three titres	–	plaque reduction	66.7%
